Results gathered from unrelated publications.
A part holds a random share of what one study measured.

Set 1
Target: RNA binding protein fox-1 homolog 2, RRM domain, GST-SBP tag (RBFOX2, Homo sapiens, UniProt O43251-10, residues 100-194)
Technique: RNA Bind-n-Seq
Form: RNA
Sample: in vitro
Tested at: 365 nM
Setting: natural RNA segment, single round, ends assumed
Relative to: no-protein control
Reading: higher = stronger binding
Construct (chain): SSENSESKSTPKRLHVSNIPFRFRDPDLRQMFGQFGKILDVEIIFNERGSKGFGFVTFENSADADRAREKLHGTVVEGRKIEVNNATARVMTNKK
Strand | RBNS enrichment (R)
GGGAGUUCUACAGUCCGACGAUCGCCUUUCAUUUUUCACGCUCGUAUUUCCCCACCUGUCCAAGGGUGCAGAUAGCAGGAUUGUGGGGUCGGCCGCAUCUCUCUUGGCAGUGGGUUGUGCUGCCCCUCCCCCCUGGAAUUCUCGGGUGCCAA | 0.504
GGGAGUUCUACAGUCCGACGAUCGCUCAGCCUGUCCCCCACUCCUGCCUGCUUCCCGGUGAGCUGCCCCCCACACGUGCAGCCCGGGCUGCCUCCAGGGUCUGGCUGAGUGGGAUCAGGUGGCCCUCCAACUCUGGAAUUCUCGGGUGCCAA | 0.326
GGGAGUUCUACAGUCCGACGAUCUGCUGGGUCCUGUCUCUUUUGACUAAUAUUUUCGUAAACAUUAGGCUGGAGAAAGGAAGGAAGCAGUGGUUUCCUUAGAUAACUACAGAAUUAUACUGGUCUCUGGGAUUUGGAAUUCUCGGGUGCCAA | 0.227
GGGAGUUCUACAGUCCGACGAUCUGGGUGCCGUAUGUGUAUGCGGCAGUGUUGUCAGGCGAUCUUGUUUGAAGCUCUAUGUUGCCAUAAUUACCAUCAAGUACACACUGUUGGCAAAAGGCUAACACCUGACUUGGAAUUCUCGGGUGCCAA | 0.47
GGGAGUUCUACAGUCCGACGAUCGGCUGUCUCCCUCCAGAGCCUCCCUCCGGACAAUGAGUCCCCCCUCUUGUCUCCCACCCUGAGAUUGGGCAUGGGGUGCGGUGUGGGGGGCAUGUGCUGCCUGUUGUUAUUGGAAUUCUCGGGUGCCAA | 1.4
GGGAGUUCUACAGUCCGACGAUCCCACAAGGCUUCCUGAAAUCAAAUGUUAGGUGUUGAGAGUAGCUGCAGUCUCGGGAUAACUUGUGAGUUCCCUGGGUCCUGGAGGGUGCAGGGUUUGUGGAACAGUAGUAUGGAAUUCUCGGGUGCCAA | 1.27
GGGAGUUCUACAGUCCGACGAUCCCUUGACAUAGUGAAGGACACUAUAAUGUAUGAGUUGUUGUCAGUUUUUAUUUAUUUUUUGUUAGGAAUUGGCCAAGAUCGCUAUGGAAAAAAUAAAAGAACAAACACAUUGGAAUUCUCGGGUGCCAA | 0.921
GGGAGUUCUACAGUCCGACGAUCAAAUAUUUUAAGGCAAGUCCAUAGGUCUGAAUCUCUUAAGAAUUCUCGGCCUCUGUGGGAUUUAGGGAAGCAUUAUAAAUGCAUUAAUCCUUAUAGUCAAUUCUGUGCCUUGGAAUUCUCGGGUGCCAA | 0.368
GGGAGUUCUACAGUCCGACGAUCAGGGAAGGCUGCGGGAAUCAUGUUAAGCAGCUUCAUUAAAUGACAUCAUCACGUGUCUAAACAGCUUAGACGUUCUUCUAUACUUGAAACACUCUCAUACAGAUGGAUGCUGGAAUUCUCGGGUGCCAA | 0.458
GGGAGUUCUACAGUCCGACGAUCACACCAGCCAUGUCUGCUGAAGGGCCCCAGACUGAGAUGACUCCGGCCUCCACAGUUAGAUGUUUAUGGUGCCAGAGGUCUAUAUUAAGGUAGCUGUCUGUUGCUAGGCAUGGAAUUCUCGGGUGCCAA | 0.543
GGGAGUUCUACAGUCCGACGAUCGGAUUGAUGACCAGGGCCCUUCCUUUCCUCUCCAGGGUCUCAAGUUGCCCCUGUCACUGGGGGAACAGGGGCCUGGCUGUAACCGCCCCUGUCCUUUUCCCCUGGCCAGCUGGAAUUCUCGGGUGCCAA | 0.356
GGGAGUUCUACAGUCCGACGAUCGUGGAAUAGGGAACUGUAAUGGCCACUGAAGCACGUGAGAGACCCUCGCAAAAUGAUGUGAAAGGACCAGUUUCUUGAAGUCCAGUGUUUCCACGGCUGGAUACCUGUGUUGGAAUUCUCGGGUGCCAA | 0.419

Set 2
Target: Signal transducer and activator of transcription 1-alpha/beta, full length (STAT1, Homo sapiens, UniProt P42224, residues 1-750)
Chain of UniProt P42224 (whole entry, looked up): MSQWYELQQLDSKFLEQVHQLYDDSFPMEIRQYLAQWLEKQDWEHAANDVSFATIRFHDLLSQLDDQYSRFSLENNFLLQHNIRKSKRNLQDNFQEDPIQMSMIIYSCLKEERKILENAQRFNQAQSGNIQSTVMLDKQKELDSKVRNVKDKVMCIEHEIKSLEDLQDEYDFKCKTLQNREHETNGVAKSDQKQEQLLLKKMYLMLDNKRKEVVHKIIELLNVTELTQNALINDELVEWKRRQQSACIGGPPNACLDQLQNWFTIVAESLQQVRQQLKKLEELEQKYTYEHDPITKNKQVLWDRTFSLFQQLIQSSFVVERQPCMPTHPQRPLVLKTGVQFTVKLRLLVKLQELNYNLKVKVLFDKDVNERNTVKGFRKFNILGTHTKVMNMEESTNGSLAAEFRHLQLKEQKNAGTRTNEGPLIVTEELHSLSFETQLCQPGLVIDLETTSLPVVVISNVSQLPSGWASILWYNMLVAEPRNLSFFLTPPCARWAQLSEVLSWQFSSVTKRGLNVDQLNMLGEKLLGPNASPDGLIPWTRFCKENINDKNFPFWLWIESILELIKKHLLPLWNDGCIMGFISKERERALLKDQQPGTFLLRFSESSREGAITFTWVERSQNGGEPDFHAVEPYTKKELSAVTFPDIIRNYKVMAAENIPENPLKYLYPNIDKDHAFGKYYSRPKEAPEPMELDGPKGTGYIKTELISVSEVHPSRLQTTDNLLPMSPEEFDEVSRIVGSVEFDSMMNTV
Technique: protein-binding microarray
Form: hairpin DNA
Sample: in vitro
Tested at: not given
Setting: whole hairpin DNA, median over replicate spots
Relative to: not given
Reading: higher = stronger binding
Constant ends, left off below: GAGGCC … GGCCTCACACTCTTTCCCTACACG
Strand | median fluorescence [a.u.]
TTCGCCGGAAGCCTCCTGGCTTCCGGCGAA (5mC at 9 33) | 1210
TTTCCCGGCGGCCTCCTGGCCGCCGGGAAA | 920
TCTCCCGGAAGCCTCCTGGCTTCCGGGAGA | 1460
TTTCCCGGGAGCCTCCTGGCTCCCGGGAAA | 948
TTACCCGGAAGCCTCCTGGCTTCCGGGTAA | 3430
TTTCTCGGAAGCCTCCTGGCTTCCGAGAAA | 4930
TTTCCCGGCGGCCTCCTGGCCGCCGGGAAA (5mC at 15) | 875
CTTCCCGGAAGCCTCCTGGCTTCCGGGAAG (5mC at 7) | 11700
TTTCCCGGCAGCCTCCTGGCTGCCGGGAAA (5mC at 15) | 2130
TTTGCCGGAAGCCTCCTGGCTTCCGGCAAA | 1170
ATTCCCGGAAGCCTCCTGGCTTCCGGGAAT | 10200
TCGCCCGGAAGCCTCCTGGCTTCCGGGCGA (5mC at 8 34) | 1150
TTTCCCGGCCGCCTCCTGGCGGCCGGGAAA | 858
TTCGCCGGAAGCCTCCTGGCTTCCGGCGAA | 1290
TTTCCCAGAAGCCTCCTGGCTTCTGGGAAA | 3500
TGTCCCGGAAGCCTCCTGGCTTCCGGGACA (5mC at 35) | 1580
TTTCCTGGAAGCCTCCTGGCTTCCAGGAAA (5mC at 11) | 4590
TTGCCCGGAAGCCTCCTGGCTTCCGGGCAA (5mC at 34) | 2680
TTTCCGGGAAGCCTCCTGGCTTCCCGGAAA (5mC at 31) | 4530
TTTCACGGAAGCCTCCTGGCTTCCGTGAAA (5mC at 10) | 1340

Set 3
Target: Histone acetyltransferase KAT6A, both winged helices, GST fusion (KAT6A, Homo sapiens, UniProt Q92794, residues 1-181)
Technique: protein binding microarray
Form: double-stranded DNA, one strand shown
Sample: in vitro
Tested at: not given
Setting: 8-mer, flanks averaged, mean of 2 arrays, mostly near background
Relative to: not given
Reading: higher = stronger binding
Construct (chain): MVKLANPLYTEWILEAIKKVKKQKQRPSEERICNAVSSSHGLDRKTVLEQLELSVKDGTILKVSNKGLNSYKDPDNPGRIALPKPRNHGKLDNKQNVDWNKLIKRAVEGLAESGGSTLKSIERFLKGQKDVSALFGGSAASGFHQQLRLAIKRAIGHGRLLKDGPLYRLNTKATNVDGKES
Strand | E-score
CGCGTGGA | 0.232
CCTACGCC | 0.00255
ATTAGCAG | -0.134
CCCAAGAA | -0.201
CCAAACCC | -0.0822
AGTTGGAA | -0.0805
GCCGACAA | 0.188
ATTTTCTA | -0.198
CCTCAACG | -0.0416
AATCGGTC | 0.126
ATCTAAAC | -0.0248
AGAATGGA | -0.0794
GACACCGC | 0.249
ATGAGGGG | -0.204
GCCTAACA | -0.13
GAGTTTCA | -0.0627
CATGGTGC | 0.00908
AGCGCCAT | 0.199
TAGGATCA | -0.178
AAAAATGA | -0.078
CGATCGAA | 0.0446
CGATCAGC | 0.0183
CACTCGCG | 0.24
TACTATCA | -0.0424
CCACTTAA | -0.133

Set 4
Target: Sal-like protein 4, full length isoform A (SALL4, Homo sapiens, UniProt Q9UJQ4, residues 1-1053)
Chain of UniProt Q9UJQ4 (whole entry, looked up): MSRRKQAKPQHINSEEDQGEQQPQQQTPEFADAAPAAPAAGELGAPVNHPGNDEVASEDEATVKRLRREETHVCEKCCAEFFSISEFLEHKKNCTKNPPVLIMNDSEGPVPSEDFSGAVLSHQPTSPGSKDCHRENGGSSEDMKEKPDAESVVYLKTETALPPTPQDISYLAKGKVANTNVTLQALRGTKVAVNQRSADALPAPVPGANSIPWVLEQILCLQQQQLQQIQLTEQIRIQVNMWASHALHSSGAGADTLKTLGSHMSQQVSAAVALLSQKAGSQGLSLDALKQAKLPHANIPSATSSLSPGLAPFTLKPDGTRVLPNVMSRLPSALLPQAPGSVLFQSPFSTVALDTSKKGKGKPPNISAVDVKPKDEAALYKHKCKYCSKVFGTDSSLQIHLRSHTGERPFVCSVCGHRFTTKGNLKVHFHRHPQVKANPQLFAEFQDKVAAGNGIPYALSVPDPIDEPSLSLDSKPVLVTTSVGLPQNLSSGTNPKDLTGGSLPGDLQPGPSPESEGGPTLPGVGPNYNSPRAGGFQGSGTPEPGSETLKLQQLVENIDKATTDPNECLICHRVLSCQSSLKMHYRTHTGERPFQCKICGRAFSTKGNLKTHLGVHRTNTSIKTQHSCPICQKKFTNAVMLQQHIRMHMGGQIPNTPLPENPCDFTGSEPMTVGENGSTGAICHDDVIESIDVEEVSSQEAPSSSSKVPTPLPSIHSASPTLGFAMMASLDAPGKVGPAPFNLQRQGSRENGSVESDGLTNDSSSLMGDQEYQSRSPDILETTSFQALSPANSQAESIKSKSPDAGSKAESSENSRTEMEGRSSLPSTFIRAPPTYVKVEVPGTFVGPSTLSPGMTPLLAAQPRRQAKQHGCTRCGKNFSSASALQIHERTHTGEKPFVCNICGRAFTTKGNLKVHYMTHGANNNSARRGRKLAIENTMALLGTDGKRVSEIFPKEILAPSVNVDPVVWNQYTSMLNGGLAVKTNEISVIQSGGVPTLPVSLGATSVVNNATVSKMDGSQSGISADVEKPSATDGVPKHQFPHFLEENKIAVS
Technique: universal PBM
Form: double-stranded DNA, one strand shown
Sample: in vitro
Tested at: 600 nM
Setting: 8-mer, flanks averaged, mean of replicates
Reading: higher = stronger binding
Strand | E-score
AAACCATA | 0.286
CTCCGTTA | 0.088
CATCTTCG | 0.0554
CACTAATA | 0.205
GCCTGCGA | -0.263
GGCATCCA | -0.14
GAGGGTGC | -0.341
AGCAACCC | -0.185
GATAATAC | 0.257
ACTCCGAA | -0.167
ATTCTCGC | -0.119
AGTATAGA | 0.217
GACCAAAA | 0.183
CGAGAAAA | 0.0733
ACGGATAC | 0.036
ATCAGAGC | -0.0231
AACCTAGT | 0.0063
CAGTATCG | 0.103
ACGGACAT | -0.0483
CCCGCCGG | -0.396
ATGCACCG | -0.154
AGGTCCGA | -0.152
AACCCATT | 0.124
CGATGCTA | 0.0502
CATTCATA | 0.373

Set 5
Target: Phosphate system positive regulatory protein PHO4, full length, GST-tagged (PHO4, Saccharomyces cerevisiae, UniProt P07270, residues 1-312)
Technique: competition protein-binding microarray
Form: double-stranded DNA, one strand shown
Sample: in vitro
Tested at: 2 µM
Setting: whole 60-bp probe, lowest competitor level
Added: Cbf1 competitor, 0.05 µM
Reading: higher = stronger binding
Target sequence (chain): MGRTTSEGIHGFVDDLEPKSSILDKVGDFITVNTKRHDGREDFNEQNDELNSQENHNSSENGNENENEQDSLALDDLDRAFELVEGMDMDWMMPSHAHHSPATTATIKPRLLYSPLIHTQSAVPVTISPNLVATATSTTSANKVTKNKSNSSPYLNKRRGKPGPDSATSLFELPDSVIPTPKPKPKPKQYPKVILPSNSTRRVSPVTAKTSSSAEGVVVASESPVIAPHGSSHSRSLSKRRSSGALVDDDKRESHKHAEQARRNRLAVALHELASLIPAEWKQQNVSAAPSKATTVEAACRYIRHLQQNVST
Strand | fluorescence intensity
AAAGCGGTAATTTTTCACGTGCGTTCACATATCTATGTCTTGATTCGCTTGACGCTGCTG | 15800 a.u.
GAGAAATAGTCATCGTTTTCAACGGAAGCTGAAATAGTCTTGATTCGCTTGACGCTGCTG | 3720 a.u.
GTCTTGTCTCATTTTCACGTGCTCTTCCCCACTTCAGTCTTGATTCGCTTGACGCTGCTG | 13000 a.u.
ATCGATTCGAAATCGCACGTAGCTGGTCATACGGCCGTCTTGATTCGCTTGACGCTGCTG | 6740 a.u.
CCTAGAGAGCGGCACCACGCGGACTCGACGGCCGCGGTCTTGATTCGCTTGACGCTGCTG | 8750 a.u.
CCTTACAGGAGATCGGACGTGTGAAATTATTGTTACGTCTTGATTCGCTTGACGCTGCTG | 4660 a.u.
GATGATGTGCTTGTCATCGTGGGTAACTTCACCAGCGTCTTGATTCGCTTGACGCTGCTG | 9310 a.u.
CTAACGAAGGTTTTTCACGTGCGATACAAGCCAAGTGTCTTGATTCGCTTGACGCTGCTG | 12600 a.u.
GTCTTGTCTCATTTTCACGTGACTTTCCCCACTTCAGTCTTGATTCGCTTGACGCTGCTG | 9880 a.u.
CGTCCTAGTGATTGGGTTGTGGGTGCCATGAGGAAGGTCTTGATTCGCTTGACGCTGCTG | 7280 a.u.
TCTCAATTATTGACTCACATGCCTCCTGGTAATACGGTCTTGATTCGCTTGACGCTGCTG | 8440 a.u.
CATGAAACTCGCTGTCAGCTGAAATTTCACCTCAGTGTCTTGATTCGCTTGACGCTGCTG | 2970 a.u.
CGTCCTAGTGATTGCATCGTGGGTGCCATGAGGAAGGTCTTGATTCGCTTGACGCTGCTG | 11800 a.u.
ATATAGTAAATAAAACACGTGATGGATTTGAAATGTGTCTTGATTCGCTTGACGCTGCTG | 18900 a.u.
ATCCCCTCTGTAAGACACGTTGGTCCACTGTAGCTTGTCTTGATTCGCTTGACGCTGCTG | 11800 a.u.
AAAGCGGTAATTTGAGTCGTGGGTGCAGATATCTATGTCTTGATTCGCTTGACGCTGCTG | 7750 a.u.
CTTTCCCGATCTTGCAACGTGGGTGTAGCACATTTGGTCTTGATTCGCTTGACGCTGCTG | 14500 a.u.
TTATCTAGCTCTGCCCACATGTGTGTTAACGAAGCAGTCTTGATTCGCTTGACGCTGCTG | 10600 a.u.
CTTTCCCGATCTTGCCCTGTGGGTGTAGCACATTTGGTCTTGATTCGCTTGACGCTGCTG | 4850 a.u.
AAAGCGGTAATTTTTCACGTGCACTCACATATCTATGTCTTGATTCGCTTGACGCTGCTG | 14500 a.u.
GTTTTGAATGTTTTCCTCGTGTGGAAGTAGAGTAGGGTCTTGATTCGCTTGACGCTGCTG | 9830 a.u.
CTAACGAAGGTTTGTTCTGTGGGTGACAAGCCAAGTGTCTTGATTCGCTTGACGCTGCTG | 3670 a.u.
CGTCCTAGTGATTGTCACCCTACTTCCATGAGGAAGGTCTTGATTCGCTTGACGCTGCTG | 4470 a.u.
CGTCCTAGCGATTGACCTGTGGGTGCCATGAGGAAGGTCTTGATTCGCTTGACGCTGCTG | 6210 a.u.
